Assay results from different studies.
Every numbered part comes from another study and shows a few of its results, in no order.

Series 1
Target: Prothrombin, mature alpha-thrombin (F2, Homo sapiens, UniProt P00734)
Technique: aptamer microarray, sandwich
Molecule type: DNA with 2'F-ANA
Sample: in vitro
Tested at: 200 nM
Setting: whole 15-mer aptamer, many near background
Together with: Cy3 exosite-II aptamer, 400 nM
Reading: higher = stronger binding
Sequence: GGTTGGTGTGGTTGG
`2'F-ANA at 1 2 3 4 6 9 10 14` — result for “mean fluorescence intensity”: 48.4 a.u.
`2'F-ANA at 1 4 6 9 11 12 14 15` — result for “mean fluorescence intensity”: 56.1 a.u.
`2'F-ANA at 2 3 5 6 7 9 10 11 14` — result for “mean fluorescence intensity”: 61.1 a.u.
For `2'F-ANA at 3 4 5 9 11`, “mean fluorescence intensity” read 82.9 a.u.
`2'F-ANA at 1 3 7 9 10 12 15` — result for “mean fluorescence intensity”: 118 a.u.
For `2'F-ANA at 2 3 5 6 7 9 11 14 15`, “mean fluorescence intensity” read 51 a.u.
`2'F-ANA at 1 2 3 4 7 10 11 14 15` — result for “mean fluorescence intensity”: 46.3 a.u.
`2'F-ANA at 1 2 7 8 9 12`: “mean fluorescence intensity” 363 a.u.
`2'F-ANA at 3 5 6 7 11 12`: “mean fluorescence intensity” 162 a.u.
`2'F-ANA at 3 4 7 12 13 15`: “mean fluorescence intensity” 773 a.u.
`2'F-ANA at 1 3 6 7 8 10 11 12 15`: “mean fluorescence intensity” 114 a.u.
`2'F-ANA at 1 3 5 6 9 10 12 13 14`: “mean fluorescence intensity” 47.4 a.u.
`2'F-ANA at 1 2 3 4 6 11 12 13 14` — result for “mean fluorescence intensity”: 64.1 a.u.
`2'F-ANA at 1 2 5 8 9 10 11 12 13` — result for “mean fluorescence intensity”: 46.3 a.u.
Under “mean fluorescence intensity”, `2'F-ANA at 2 8 9 10 12 13` is recorded as 180 a.u.
Under “mean fluorescence intensity”, `2'F-ANA at 4 5 7 9 11 13 14 15` is recorded as 46 a.u.
For `2'F-ANA at 1 2 3 7 10 11 12 15`, “mean fluorescence intensity” read 109 a.u.
Under “mean fluorescence intensity”, `2'F-ANA at 1 3 5 6 10 11` is recorded as 50.1 a.u.
`2'F-ANA at 1 4 5 11`: “mean fluorescence intensity” 48.4 a.u.
Under “mean fluorescence intensity”, `2'F-ANA at 1 2 3 5 7 11 15` is recorded as 55.1 a.u.
`2'F-ANA at 4 6 8 12 13 15`: “mean fluorescence intensity” 386 a.u.
`2'F-ANA at 1 2 4 5 9 12 15` — result for “mean fluorescence intensity”: 110 a.u.
`2'F-ANA at 4 6 7 10` — result for “mean fluorescence intensity”: 79.9 a.u.
`2'F-ANA at 3 4 6 7 9 11 13 15`: “mean fluorescence intensity” 366 a.u.
`2'F-ANA at 2 3 4 7 9 10 11 12 15`: “mean fluorescence intensity” 298 a.u.

Series 2
Target: RNA binding protein fox-1 homolog 2, RRM domain, GST-SBP tag (RBFOX2, Homo sapiens, UniProt O43251-10, residues 100-194)
Technique: RNA Bind-n-Seq
Molecule type: RNA
Sample: in vitro
Tested at: 365 nM
Setting: natural RNA segment, single round, ends assumed
Baseline: no-protein control
Reading: higher = stronger binding
Under “RBNS enrichment (R)”, `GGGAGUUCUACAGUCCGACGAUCGAAAAUUGAUGGGGUUUAAAGCUACAGAGGCACUGACCUUUUUCUAGUUAUUGUAUUGCUACAAUUUAAAUAUUAAAACAAAUAAGAGCUUUCUCAACAAAUUAGUCCAUUGGAAUUCUCGGGUGCCAA` is recorded as 0.388.
`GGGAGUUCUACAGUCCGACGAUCUUGGGGAAGGGGACAGAUUAUGAAAUUUCAUGGAUGAAUUUUCCAGACCUAUAUCUGGAGUGAGAGGCCCCCACCCUUGGGCAGAGUCCUGCCUUCUUCCUUGAGGGGCAUGGAAUUCUCGGGUGCCAA` — result for “RBNS enrichment (R)”: 0.502.
`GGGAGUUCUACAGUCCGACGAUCACUGCAGCCAGUCCGUUUCCUUUCUUUAGCCAGCCAUCCUGGUACUGUAGUUUAGGGGUUGAUGGUGGUUGAAAUUGAUUUCUGGCUGGUUACUAAGGUGCCUGCUAGCCUGGAAUUCUCGGGUGCCAA` — result for “RBNS enrichment (R)”: 0.601.
Under “RBNS enrichment (R)”, `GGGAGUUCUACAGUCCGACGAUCUCUAAAACCCACCUUUGUCUGAGGUGCCGGGAGUAGCCAUGGUACCCCCUUCCUGGGCAUCCGUUCGGGUUUUCUAACCGUUGUCUUGUUCUGGGGUGAGCGGGGAGCGCUGGAAUUCUCGGGUGCCAA` is recorded as 0.543.
For `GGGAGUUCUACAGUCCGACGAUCACAAAAUUUGAAGAUAUUAUGUAGUGGUCAAGGACCACUAAUAUUUGGGGAGUGUGUUUUGUCUGUUCUUCAAUGAAGGAUCAAUCCAGUGUUCUUCAUCAAUGUUAGUUUGGAAUUCUCGGGUGCCAA`, “RBNS enrichment (R)” read 0.426.
`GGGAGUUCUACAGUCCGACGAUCCUGGGACCCCCGCCCAGCUUGGGGGGCUGCUCGUACGAGUGUAGACACUGGGCCCAUUGGACGUGCUGUUAACUACUAUCUUCAUUUCCCACUUCCCCUCUCUGAUUGGGUGGAAUUCUCGGGUGCCAA` — result for “RBNS enrichment (R)”: 0.538.
`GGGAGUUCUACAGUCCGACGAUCUGGAAGGACAUAGUUCUUCUAAAAUUUCCUGUUAAUUGGCAUGUACGUCUCAUUUAAAGCAAAUUAAGUAGGACAAGCAAGUCAGUAAAAUAGAAGUAUUAAAAAGAAUCUGGAAUUCUCGGGUGCCAA`: “RBNS enrichment (R)” 0.408.
Under “RBNS enrichment (R)”, `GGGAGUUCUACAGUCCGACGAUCUUUCUUGUUUUAACAGCCUUGAGAAAUGUUUGGUUUUGGCCAGCAGAAUUCUUGUCUACUUUUUUCUUUCCCAAAAAGUGUUUUUUAAUUUCUCUACCAAAGAAAAAAUGUGGAAUUCUCGGGUGCCAA` is recorded as 0.96.
Under “RBNS enrichment (R)”, `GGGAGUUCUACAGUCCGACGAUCUGCUCCCAGAUGGCGGUCUCCUGGCAGCCUCCCCUCAGUCUUCCUCCACCCGCUCUUCCUUCCCAGCCUGCCUGCAUGCAUGUGCACCCUUGGUCUUCGCUCCAUCGCCUUGGAAUUCUCGGGUGCCAA` is recorded as 19.3.

Series 3
Target: Interferon regulatory factor 5, full length, phosphomimetic (IRF5, Homo sapiens, UniProt Q13568-2, residues 1-514, K96S/S451D/S453D/S456D/S462D)
Technique: protein-binding microarray
Molecule type: double-stranded DNA, one strand shown
Sample: in vitro
Tested at: 250 nM
Setting: 60-bp whole probe
Together with: salmon DNA 0.4 mg/ml
Baseline: random background probes
Reading: higher = stronger binding
Shared flanks, not repeated: GCCTAGCAC … GTCTTGATTCGCTTGACGCTGCTG
For `TTAGGGCTCCTTATCCTTTAGTGCTAG`, the log fluorescence was -0.282 z-score.
`AGCAAAAATGATTGGTTGAAGTGCTAG` gave a log fluorescence of -0.122 z-score.
`GACGATAGCAGTTTCGAGACGTGCTAG` gave a log fluorescence of 5.46 z-score.
For `TCACTCATGGCTTTGTAACTGTGCTAG`, the log fluorescence was -0.000949 z-score.
`TATCATTTAATTATATGGCTGTGCTAG` has a log fluorescence of 5.58 z-score.
`GACTATATCAGTCTCGAGACGTGCTAG` gave a log fluorescence of 1.04 z-score.
`TACGGTTTCGACTTTCGGGACGTGCTA` has a log fluorescence of 8.24 z-score.
With `TTAGACTTCAGACTGGATTAGTGCTAG` the log fluorescence was -0.134 z-score.
`TTAGGTTTCGACTCTCGGTTAGTGCTA` gave a log fluorescence of 6.86 z-score.
`GACGGTATCGGGTTCGGGACGTGCTAG` has a log fluorescence of 2.24 z-score.
With `GACGGTTTCGACTATCGAGACGTGCTA` the log fluorescence was 7.35 z-score.
`GTCGGACTGGGGTATCGGGACGTGCTA` gave a log fluorescence of -0.0162 z-score.
The log fluorescence of `GACGGACTGCTTAGCCTGACGTGCTAG` is reported as -0.815 z-score.
The log fluorescence of `TCAGAATTCAGAATGGGACTGTGCTAG` is reported as -0.237 z-score.
`GTCGGTATCCTTCTCCTGACGTGCTAG` has a log fluorescence of 0.605 z-score.
The log fluorescence of `TTAGATTTCGGGTTTCGATTGGTGCTA` is reported as 8.43 z-score.
For `TTTTTTTTCTACTTCTGTTTGTGCTAG`, the log fluorescence was 2.07 z-score.
With `TTAGGTATAGGTCTCGGTTAGTGCTAG` the log fluorescence was 0.121 z-score.
`TTAGGTATCCTTCTCCTTTTGTGCTAG` has a log fluorescence of 0.499 z-score.
`TTAGGTTTCCTTTTCCGTTAGTGCTAG` gave a log fluorescence of 1.41 z-score.
`TTAGGACAGGGGACTGGGTTAGTGCTA` has a log fluorescence of -0.157 z-score.
The log fluorescence of `TTAGATATTGGGTTTCGATTAGTGCTA` is reported as 6.99 z-score.

Series 4
Target: Sal-like protein 4, full length isoform A (SALL4, Homo sapiens, UniProt Q9UJQ4, residues 1-1053)
Chain of UniProt Q9UJQ4 (whole entry, looked up): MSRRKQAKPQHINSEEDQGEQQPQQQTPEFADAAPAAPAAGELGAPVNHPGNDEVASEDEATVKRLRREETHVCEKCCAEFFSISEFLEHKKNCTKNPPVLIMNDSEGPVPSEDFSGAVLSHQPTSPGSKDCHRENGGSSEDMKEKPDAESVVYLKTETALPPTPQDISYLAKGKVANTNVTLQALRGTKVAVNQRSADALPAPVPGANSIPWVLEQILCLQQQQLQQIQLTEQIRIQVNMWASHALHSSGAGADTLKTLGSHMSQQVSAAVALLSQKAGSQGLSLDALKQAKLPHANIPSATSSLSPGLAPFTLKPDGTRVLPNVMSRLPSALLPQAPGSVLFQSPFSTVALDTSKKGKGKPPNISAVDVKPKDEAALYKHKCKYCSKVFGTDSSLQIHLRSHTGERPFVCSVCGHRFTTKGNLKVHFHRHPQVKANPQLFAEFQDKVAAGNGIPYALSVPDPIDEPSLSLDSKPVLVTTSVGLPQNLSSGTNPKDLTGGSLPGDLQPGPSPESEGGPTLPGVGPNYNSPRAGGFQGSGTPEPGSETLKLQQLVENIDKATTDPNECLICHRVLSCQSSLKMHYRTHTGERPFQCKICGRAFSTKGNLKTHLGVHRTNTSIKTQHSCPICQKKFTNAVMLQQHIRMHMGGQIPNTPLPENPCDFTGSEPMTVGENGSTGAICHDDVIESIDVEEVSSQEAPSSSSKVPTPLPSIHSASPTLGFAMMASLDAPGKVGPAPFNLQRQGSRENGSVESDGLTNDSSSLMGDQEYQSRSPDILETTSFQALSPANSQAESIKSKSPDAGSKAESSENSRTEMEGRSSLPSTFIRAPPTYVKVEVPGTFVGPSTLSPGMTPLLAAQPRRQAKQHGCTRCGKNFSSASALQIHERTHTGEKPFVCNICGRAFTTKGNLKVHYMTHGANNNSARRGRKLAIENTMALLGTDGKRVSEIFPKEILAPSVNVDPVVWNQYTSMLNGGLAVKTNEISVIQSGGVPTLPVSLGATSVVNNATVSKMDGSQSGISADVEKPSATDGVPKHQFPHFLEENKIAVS
Technique: universal PBM
Molecule type: double-stranded DNA, one strand shown
Sample: in vitro
Tested at: 600 nM
Setting: 8-mer, flanks averaged, mean of replicates
Reading: higher = stronger binding
For `CTACTGAC`, the E-score was -0.0746.
`AGTAGAGC` has an E-score of 0.00314.
`CGATTACA` has an E-score of 0.0537.
`AATTAAGG` gave an E-score of 0.177.
The E-score of `AACAGACC` is reported as 0.0499.
With `GGCTTGAC` the E-score was -0.187.
The E-score of `AAGTTCAC` is reported as -0.0341.
With `ATGCCATG` the E-score was 0.0831.
With `AGGTGGAG` the E-score was -0.116.
`AAGTAGGA` has an E-score of 0.0748.
`GTGTAGCA` gave an E-score of -0.158.
The E-score of `CGTCTATC` is reported as 0.0543.
`TCGGAGAA` gave an E-score of -0.0798.
With `CGCACACG` the E-score was -0.178.
The E-score of `ATATCCTG` is reported as 0.132.
With `CCCACTAG` the E-score was -0.329.
`AGCAATTC` has an E-score of 0.134.
With `CGAGGGCA` the E-score was -0.153.
`ATGTTCGC` gave an E-score of 0.0485.
`CTGTATCC` gave an E-score of 0.141.
`GCCTATAC` has an E-score of -0.0576.
`CAATCAGG` has an E-score of -0.059.
`CTAGACCC` gave an E-score of -0.303.

Some of these lines once more (series 1):
`2'F-ANA at 1 4 6 9 11 12 14 15` — result for “mean fluorescence intensity”: 56.1 a.u.
`2'F-ANA at 2 3 5 6 7 9 10 11 14` — result for “mean fluorescence intensity”: 61.1 a.u.
For `2'F-ANA at 3 4 5 9 11`, “mean fluorescence intensity” read 82.9 a.u.
`2'F-ANA at 1 3 7 9 10 12 15` — result for “mean fluorescence intensity”: 118 a.u.
For `2'F-ANA at 2 3 5 6 7 9 11 14 15`, “mean fluorescence intensity” read 51 a.u.
`2'F-ANA at 1 2 3 4 7 10 11 14 15` — result for “mean fluorescence intensity”: 46.3 a.u.
`2'F-ANA at 1 2 7 8 9 12`: “mean fluorescence intensity” 363 a.u.
`2'F-ANA at 3 5 6 7 11 12`: “mean fluorescence intensity” 162 a.u.
`2'F-ANA at 3 4 7 12 13 15`: “mean fluorescence intensity” 773 a.u.
`2'F-ANA at 1 3 6 7 8 10 11 12 15`: “mean fluorescence intensity” 114 a.u.
